Published values from different studies.
Compare with care: the assays were run in different laboratories. “And” joins repeats or separate records; there may be more than shown. ± gives the spread as reported.
Cell line: A549

SMILES | assay | setting | how to read | measurement | result
COc1cc2ncc3c(c2cc1-c1cnn(C)c1)n(-c1ccc(C#N)cc1F)c(=O)n3C |  | 1 µM, with: ionising radiation | baseline: ionising radiation alone | colony formation | decreased
COc1ccc(/C=C/C2=[N+]3C(=C(CO)c4c(C)cc(/C=C/c5ccc(OC)cc5)n4[B-]3(F)F)C(C)=C2)cc1 | resazurin | with: 645 nm light | baseline: dark over light IC50 | phototoxicity index | 220 ± 100
C[C@@H]1O[C@@H](OC[C@H]2O[C@@H](OCCc3ccc(O)c(O)c3)[C@H](O)[C@@H](O)[C@@H]2OC(=O)/C=C/c2ccc(O)c(O)c2)[C@H](O)[C@H](O)[C@H]1O | western blot | concentration not given |  | H3K4me2 accumulation | 206%
CC(C)=CCn1c2cccc(=O)c-2nc2ccccc21 | cytotoxicity, WST-8 |  | baseline: IC50 MRC5 over IC50 A549 | selectivity index | 0.99
[Cl-].[Cl-].[Ru+2].c1ccc2nc(-c3ccc4ccccc4n3)ccc2c1.c1cnc2c(c1)ccc1cccnc12.c1cnc2c(c1)ccc1cccnc12 | oxygen consumption rate, Seahorse extracellular flux | 1 h, dark |  | lowest concentration inhibiting OCR | > 25 µM
C=C(CC)C(=O)c1ccc(OCC(=O)NCCNC(=O)COc2ccc(C(=O)C(=C)CC)c(Cl)c2Cl)c(Cl)c1Cl | cell growth, CCK-8 | 1.0 µM, with: cisplatin |  | sensitisation to cisplatin | ~7 fold
[Cl-].[Cl-].[Ru+2].c1ccc(-c2ccnc3c2ccc2c(-c4ccccc4)ccnc23)cc1.c1cnc2c(c1)ccc1cccnc12.c1cnc2c(c1)ccc1cccnc12 | oxygen consumption rate, Seahorse extracellular flux | 1 h, with: indigo light 450 nm, 29.1 J/cm2 |  | lowest concentration inhibiting OCR | 1 µM
CC(=O)N[C@@H](CC[S+](C)[Ru-4]123([S+](C)CC[C@H](NC(C)=O)C(=O)O)[n+]4ccc5ccccc5c4Nc4cccc([n+]41)-c1cccc([n+]12)Nc1c2ccccc2cc[n+]13)C(=O)[O-].F[P-](F)(F)(F)(F)F (stereo partly shown) | cytotoxicity | dark, 6 and 24 h |  | EC50 | 11000 to 20000 nM
COc1ccc(/C=C/C2=[N+]3C(=C(COC(C)=O)c4c(C)cc(/C=C/c5ccc(OC)cc5)n4[B-]3(F)F)C(C)=C2)cc1 | resazurin | with: 645 nm light | baseline: dark over light IC50 | phototoxicity index | 9 ± 2
CC(=O)OC[C@H]1O[C@@H](Sc2sc(C(=O)c3ccc(Br)cc3)c(N)c2-c2nc3ccccc3s2)[C@H](OC(C)=O)[C@@H](OC(C)=O)[C@H]1OC(C)=O | SRB | 10 µM, 48 h |  | growth | 92.2%
CC1(CO)C(O)CCC2(C)C(C=CC3=CCOC3=O)C(CO)=CCC12 (stereo not shown) | cell growth or viability, MTT | 20 µM, 48 h |  | inhibition | 40.8%
Cc1ccc(C2=Nn3c(N/N=C4/C(=O)Nc5ccc(Br)cc54)nnc3SC2)cc1 |  | 10 µM |  | growth inhibition | 17%
Cc1cccc(-c2cccc(C)n2)n1.Cc1cccc(-c2cccc(C)n2)n1.[Cl-].[Cl-].[Ru+2].c1ccc(-c2ccnc3c2ccc2c(-c4ccccc4)ccnc23)cc1 | resazurin |  | baseline: dark EC50 over light EC50 | phototoxicity index | 2.5 and > 2.5
CC1=C(Cn2c3cccc(=O)c-3nc3ccccc32)CCC(C)(C)C1 | cytotoxicity, WST-8 |  | baseline: IC50 MRC5 over IC50 A549 | selectivity index | 1.79
CCCC1OC2CC3C4CCC5=CC(=O)C=CC5(C)C4C(O)CC3(C)C2(C(=O)COC(=O)C(N)Cc2ccccc2)O1 (stereo not shown) | IL-6 release, inhibitor, ELISA | 1 nM, 24 h, LPS-stimulated |  | inhibition | > 50%
FC(F)(F)c1ccnc(-c2cc(C(F)(F)F)ccn2)c1.FC(F)(F)c1ccnc(-c2cc(C(F)(F)F)ccn2)c1.[Cl-].[Cl-].[Ru+2].c1csc(-c2ccc(-c3ccc(-c4ccc(-c5nc6c7cccnc7c7ncccc7c6[nH]5)s4)s3)s2)c1 | cell viability | 100 J/cm2 light, normoxia, with: visible light 400-700 nm |  | EC50 | 77 nM

SMILES | assay | setting | how to read | measurement | result
Cc1cccc(O)c1C(=O)OCC1(O)C(Nc2cccc3ccccc23)C(N)C(NC(=O)N(C)C)(C(C)O)C1(C)O (stereo not shown) | cell growth or viability |  |  | EC50 | 2210 nM
Cc1cc(Nc2cc(CN3CCN(C)CC3)cc(NC(=O)c3cccc(Nc4ccnc5ccccc45)c3)c2)nc(N)n1 |  | concentration not given |  | time to peak γH2AX | 2 to 6 h
C#Cc1cccc(Nc2ncnc3cc(OC)c(OCCCN4CCOCC4)cc23)c1 | EGFR phosphorylation, Western blot, refers to: p-EGFR and p-AKT | concentration not given, 2 h then washout |  | recovery time | 12 h
Nc1cccc[n+]1Cc1cccc(C[n+]2ccccc2N)c1 | flow cytometry | 15 µM, 24 h |  | S phase cells | 11.5%
COCc1nc(C(F)(F)F)[nH]c1-c1cc(C(=O)N2CC(c3ccc(C#N)cc3)C2)c(C)cc1C | tubulin palmitoylation, acyl-biotin exchange Western blot, refers to: palmitoyl-β-tubulin | 50 nM, 72 h |  | inhibition | 92%
O=C1Nc2ccc(Cl)cc2/C1=N/Nc1nnc(Cc2ccccc2)c2ccccc12 |  | 5 µM, 16 h |  | caspase-3/7 activity | 3 fold
Cc1ccc2ccc3ccc(C)nc3c2n1.Cc1ccc2ccc3ccc(C)nc3c2n1.Clc1ccc(-c2cc(-c3ccccn3)nn2-c2ccccc2)cc1.[Cl-].[Cl-].[Ru+2] | Seahorse Mito Stress Test | concentration not given, with: 450 nm light 29.1 J/cm2 | baseline: vehicle | maximal respiration reduction | < 30%
O=c1c2ccccc2[se]n1CCCCCCn1[se]c2ccccc2c1=O | cell growth, EZMTT |  |  | maximal inhibition | 100%
COc1ccc([C@@H]2CC(=O)c3c(O)cc(O[C@@H]4O[C@H](CO[C@@H]5O[C@@H](C)[C@H](O)[C@@H](O)[C@H]5O)[C@@H](O)[C@H](O)[C@H]4O)cc3O2)cc1O | cell migration, scratch | 100 µg/mL, 48 h |  | gap closure | 6.76 ± 0.82%
CCOC(=O)C1=C(C)NC(=O)N[C@@H]1/C=C/c1ccc(OC)cc1 | wound healing | 7 and 15 µM, 24 h | baseline: vehicle DMSO | cell migration | decreased
FC(F)(F)c1ccnc(-c2cc(C(F)(F)F)ccn2)c1.FC(F)(F)c1ccnc(-c2cc(C(F)(F)F)ccn2)c1.[Cl-].[Cl-].[Ru+2].c1csc(-c2ccc(-c3ccc(-c4nc5c6cccnc6c6ncccc6c5[nH]4)s3)s2)c1 | cell viability | 100 J/cm2 light, normoxia, with: visible light 400-700 nm | baseline: dark over light EC50 | phototherapeutic index | 280
Cc1cc(-c2ccccc2)c2ccc3c(-c4ccccc4)cc(C)nc3c2n1.[Cl-].[Cl-].[Ru+2].c1ccc(-c2ccccn2)nc1.c1ccc(-c2ccccn2)nc1 |  | 3 µM, 6 to 12 h, dark |  | maximum cellular uptake | ~2.2 nmol/10⁶ cells
CCN1CCC2(CC1)C/C(=N\NC(=O)Nc1ccccc1)c1ccccc1O2 | PI staining, flow cytometry | concentration not given, %G2/M |  | cell cycle distribution | 6.55%
Cc1cccc(-c2cccc(C)n2)n1.[Cl-].[Cl-].[Ru+2].c1ccc(-c2ccccn2)nc1.c1ccc(-c2ccccn2)nc1 | Seahorse proton efflux | concentration not given, dark and irradiated |  | glycolytic rate | no effect
COc1ccc([C@@H]2CC(=O)c3c(O)cc(O[C@@H]4O[C@H](CO[C@@H]5O[C@@H](C)[C@H](O)[C@@H](O)[C@H]5O)[C@@H](O[C@H]5O[C@H](CO)[C@@H](O)[C@H](O)[C@H]5O)[C@H](O)[C@H]4O)cc3O2)cc1O | cell migration, scratch | 100 µg/mL, 72 h |  | gap closure | 6.55 ± 0.3%

Excerpt of the above:
SMILES | assay | setting | how to read | measurement | result
COc1ccc([C@@H]2CC(=O)c3c(O)cc(O[C@@H]4O[C@H](CO[C@@H]5O[C@@H](C)[C@H](O)[C@@H](O)[C@H]5O)[C@@H](O[C@H]5O[C@H](CO)[C@@H](O)[C@H](O)[C@H]5O)[C@H](O)[C@H]4O)cc3O2)cc1O | cell migration, scratch | 100 µg/mL, 72 h |  | gap closure | 6.55 ± 0.3%
Cc1cccc(-c2cccc(C)n2)n1.Cc1cccc(-c2cccc(C)n2)n1.[Cl-].[Cl-].[Ru+2].c1ccc(-c2ccnc3c2ccc2c(-c4ccccc4)ccnc23)cc1 | resazurin |  | baseline: dark EC50 over light EC50 | phototoxicity index | 2.5 and > 2.5
O=c1c2ccccc2[se]n1CCCCCCn1[se]c2ccccc2c1=O | cell growth, EZMTT |  |  | maximal inhibition | 100%
